Experimental data gathered from unrelated publications.
Protocols differ between the studies behind these lines. ± marks the error that the study gave.

C[n+]1ccc(/C=N/NC(=O)c2ccc3ccc4ccc(C(=O)N/N=C/c5cc[n+](C)c6ccccc56)nc4c3n2)c2ccccc21
ΔTm (22CTA telomeric G4-DNA antiparallel; FRET melting; 1 µM, K10 buffer, DNA 0.2 µM, with: ds26 10 µM): 11.9 ± 0.3 °C

COC1CN([C@H]2CC[C@H]([C@@]3(C)Oc4c(Cl)cc(C(=O)NCc5c(SC)cc(C)[nH]c5=O)c(C)c4O3)CC2)C1
log2 fold change (RNA-seq, refers to: MUSTN1 mouse homolog; mouse, HT-1376 xenograft, whole blood; dose not given; reference: vehicle): 0.539

c1ccc(-c2n[nH]cc2-c2ccnc3ccccc23)nc1
log2 fold change (ENV7 (Candida albicans); kinase binding, MIB/MS competition; Candida albicans lysate; 1 µM; reference: DMSO): 0.12

Nc1ncc(-c2cc(-c3cnn(CC(F)(F)F)c3)ncc2F)nc1C(=O)NC1CNCC(F)C1 (stereo not drawn)
remaining binding (FER; KINOMEscan; 1 µM; reference: DMSO control): 90%

C[n+]1cc(/C=N/NC(=O)N/N=C/c2cc3ccccc3[n+](C)c2)cc2ccccc21
ΔTm (22CTA telomeric G4-DNA antiparallel; FRET melting; 1 µM, K10 buffer, DNA 0.2 µM): 6.3 ± 1.3 °C

C=CC(=O)N1[C@H](c2ccc3c(c2)OCO3)c2[nH]c3ccccc3c2C[C@@H]1C(=O)N1CCN(C)CC1
relative co-enrichment (human cyclin E1 N112C-3xFLAG:CDK2; co-IP with TMT proteomics, refers to: PRPF8; concentration not given, Q6P2Q9; reference: wild type DMSO): 136%

Cc1ncsc1-c1ccc(C(C)NC(=O)C2CC(O)CN2C(=O)C(NC(=O)CCCCCCCCCCN2CCCC(Nc3ncc(Cl)c(Nc4ccccc4S(=O)(=O)C(C)C)n3)C2)C(C)(C)C)cc1 (stereo not drawn)
log2 fold change (22Rv1; RNA-seq, refers to: TAF4B mRNA; concentration not given; reference: DMSO): -1.13

O=C(N/N=C/c1cc[n+](Cc2ccccc2)c2ccccc12)c1ccc2ccc3ccc(C(=O)N/N=C/c4cc[n+](Cc5ccccc5)c5ccccc45)nc3c2n1
ΔTm (22CTA telomeric G4-DNA antiparallel; FRET melting; 1 µM, K10 buffer, DNA 0.2 µM, with: ds26 10 µM): 17.5 ± 0.5 °C

C=CC(=O)Nc1cccc(Cn2ncc3cnc(Nc4cnn(CCOC)c4)nc32)c1
binding (human BIKE; KINOMEscan; 100 nM; reference: control): 3.3%

Repeated from above:
C[n+]1ccc(/C=N/NC(=O)c2ccc3ccc4ccc(C(=O)N/N=C/c5cc[n+](C)c6ccccc56)nc4c3n2)c2ccccc21
ΔTm (22CTA telomeric G4-DNA antiparallel; FRET melting; 1 µM, K10 buffer, DNA 0.2 µM, with: ds26 10 µM): 11.9 ± 0.3 °C
